Assay results of several laboratories.
Each line is one published result; not all experiments were run side by side. Several values in a cell are separate wells, animals, samples, runs or records. Numbers after ± are the reported error.

SMILES	assay	system	setting	how to read	measurement	value
O=C(O)c1cccc(C(=O)O)c1		betaine/propylene glycol DES-water	DES mass fraction 0.30		apparent dissolution enthalpy	4.06 kcal/mol
CN1CCN(c2cccc3c2CCN(C(=O)/C=C/c2c(-n4cnnn4)ccc(Cl)c2F)[C@@H]3C(=O)Nc2ccc(C(=O)O)cc2)C(=O)C1		healthy human subjects	intravenous infusion, 1 mg/h, 5 days		discontinuations due to adverse events	0%
CNCc1ccc(-c2[nH]c3cc(F)cc4c3c2CCNC4=O)cc1		human patients	oral, 600 mg twice daily, grade 5		vomiting incidence	0%
Cc1cc(-c2nccc3c2ccn3CC(=O)Nc2ccc(-c3cnccn3)cn2)ccn1		human	5 mg once daily, multiple ascending dose		subjects with blurred vision	12.5%
CCOC(=O)N1C[C@@H](c2ccc(F)cc2)N[C@@H](C2CC2)C1	shake-flask, LC-HRMS	aqueous buffer	16 h, pH 6.8		solubility	> 750 µM
N#Cc1cccc(-c2ccc3ncc(-c4cc(F)cc(F)c4)c(N4CCC(N)CC4)c3c2)c1O		male human, plasma	20 mg, geometric mean		absolute bioavailability	69%
CN(CC#N)C(=O)C[C@H](Nc1nc2ccccc2[nH]1)c1cccc(C(F)(F)F)c1		human	intravenous infusion, 1 mg/kg, 5 mg/mL formulation		apparent clearance	11.1 ± 2.52 L/h
CCc1cc(C(=O)NC)c2nccc(N3CCc4c(cc(Cn5ccnc5)cc4-c4cn(C)nc4C(F)(F)F)C3=O)c2c1		Sprague Dawley rat, male, plasma	oral, 100 mg/kg twice daily, 7 days		MRT(0-inf)	9.1 h
O=C(O)CCCOc1ccc([18F])cc1-c1cc(-c2ccccc2C(F)(F)F)n(-c2ccccc2)n1	gamma counting	male ddY mice, pancreas	intravenous, 2.1 MBq, 5 min		radioactivity uptake	0.72 ± 0.14 SUV
CCOC(=O)N1C[C@@H](c2ccc(O)cc2)N[C@@H](C2CCC2)C1	shake-flask, LC-HRMS	aqueous buffer	16 h, pH 6.8		solubility	> 750 µM
CCCOc1ccc(-c2ccc(C#N)cc2)cc1		Sprague-Dawley rat, female, placenta	5000 ng/mL in perfusate, 50 (unit not given), high dose, mixture of 21 LCMs		placental accumulation	590 ± 640 ng/g
C[C@H]1OC[C@H](C2CCCCC2)N[C@@H]1c1cccc(Cl)c1	shake-flask, LC-HRMS	aqueous buffer	16 h, pH 6.8		solubility	< 4 µM
Cc1cc([C@H]2C[C@H]3[C@@H](CF)SC(N)=N[C@@]3(c3ccc(F)cc3F)CO2)on1		male 129/SVE wild-type mouse, brain	subcutaneous, 30 mg/kg, 5 h		brain concentration	152 nM
CCCC1CCC(c2ccc(-c3ccc(F)c(F)c3)cc2)CC1 (stereo not shown)		Sprague-Dawley rat, female, placenta	5000 ng/mL in perfusate, 50 (unit not given), high dose, mixture of 21 LCMs		placental accumulation	352 ± 482 ng/g
CCn1c(=O)c(-c2cc(NC(=O)Nc3ccccc3)c(F)cc2Br)cc2cnc(NC)cc21	measured: lipase increased	human, moderate hepatic impairment	oral, 50 mg single dose		participants with drug-related TEAE	50%
COc1ccc2c(c1)CN(C(=O)CCN1CCC(Cc3ccccc3)CC1)CC[S@@+]2[O-]	telemetry	conscious male beagle dogs	intravenous, 8 mg/kg, 24 h		QRS duration	33 ± 10 ms
COc1ccc([C@@H](O)c2cc(-c3ncnc4cc(N5CCOCC5)ccc34)c(F)cc2Cl)nn1		locally advanced rectal cancer patients	100 mg, added: capecitabine and radiotherapy		lymphocyte count decrease TEAE	33%
NC1(C(=O)N[C@@H](CCO)c2ccc(Cl)cc2)CCN(c2nc[nH]c3nccc2-3)CC1		metastatic CRPC patients	480 mg b.i.d., any grade, treatment-related, added: enzalutamide 160 mg daily		incidence of Dysuria	0%
N#Cc1ccc2c(c1)[C@H]1CCCN(C(=O)c3ccc4[nH]cnc4c3)[C@H]1C2		human, plasma	oral, 20 mg once daily, steady state, median		tmax steady state	0.667 h
Cc1ccc(Sc2ccccc2N2CCNCC2)c(C)c1	measured: Headache	healthy adult men	oral, 20 mg single dose, 10 day		participants with TEAE	0%
O=C(Nc1nc2cccc(-c3ccc(CN4CCS(=O)(=O)CC4)cc3)n2n1)C1CC1	measured: non-infective cystitis	rheumatoid arthritis patients	oral, 200 mg once daily, 4 weeks, any relatedness		treatment-emergent adverse events	0%
O=C(N[C@H](Cc1c[nH]c2ccccc12)C(=O)Nc1ccncc1)c1ccc(N2CCN(c3ccc(F)c(F)c3)CC2)cc1F		Swiss Webster mouse, female, intestine	oral, 50 mg/kg, 2 h, 20% HPβCD vehicle		concentration	185000 nM
COC(=O)N[C@@H](C)CNc1nccc(-c2cn(C(C)C)nc2-c2cc(Cl)cc(NS(C)(=O)=O)c2F)n1		human, plasma	oral, 50 mg, single dose, geometric mean, added: diltiazem	reference: compound alone	Cmax increase	~45% and 44.7%

SMILES	assay	system	setting	how to read	measurement	value
Cc1ccc([C@@H]2O[C@H](CO)[C@@H](O)[C@H](O)[C@H]2O)cc1Cc1ccc(-c2ccc(F)cc2)s1		Japanese type 2 diabetes patients	200 mg, day 2, 24 h urine collection	reference: baseline	urinary magnesium excretion change	-10.7 mg
CC(C(=O)NCC(=O)NCC(CNC(=O)CNC(=O)C(C)N1CCN(CC(=O)[O-])CCN(CC(=O)[O-])CCN(CC(=O)[O-])CC1)(CNC(=O)CNC(=O)C(C)N1CCN(CC(=O)[O-])CCN(CC(=O)[O-])CCN(CC(=O)[O-])CC1)CNC(=O)CNC(=O)C(C)N1CCN(CC(=O)[O-])CCN(CC(=O)[O-])CCN(CC(=O)[O-])CC1)N1CCN(CC(=O)[O-])CCN(CC(=O)[O-])CCN(CC(=O)[O-])CC1.[Gd+3].[Gd+3].[Gd+3].[Gd+3] (stereo not shown)	ICP-MS	cynomolgus monkey, feces	1 days post-injection	reference: dose	cumulative fecal excretion	0.04%
O=c1[nH]c(=O)n([C@H]2C[C@H](O)[C@@H](CO)O2)cc1CCCCC[18F]		male CD-1 nu/nu mice, RG2 tumour, brain	intravenous, dose not given, 2 h		biodistribution	0.04 ± 0.01 %ID/g
Cc1cc(C)c(CNC(=O)c2cc(Cl)c3c(c2C)O[C@@](C)([C@H]2CC[C@H](N(C)C)CC2)O3)c(=O)[nH]1		human relapsed/refractory NHL	oral, 200 mg once daily, onset after cycle 1 day 1		confusional state grade ≥3	4.2%
C=CC(=O)N1CCC[C@@H](n2c(=O)n(-c3ccc(Oc4ccccc4)cc3)c3c(N)nccc32)C1		human	oral, 60 mg	reference: fed over fasted	Cmax fed/fasted ratio	1.17
COc1ccc2[nH]c([S+]([O-])Cc3ncc(C)c(OC)c3C)nc2c1 (stereo not shown)	static equilibrium cell	water	25 °C, 20 bar pressure		water solubility lower bound	6.97e-06 mole fraction
CNC(=O)c1ccc(-c2cnc3ncc(Cc4ccc5ncccc5c4)n3n2)cc1F	measured: Nausea	hepatocellular carcinoma patients	oral, 600 mg twice daily, expansion cohort, grade 3-4		patients with adverse event	9%
Cc1cc([C@H]2C[C@H]3[C@@H](C)SC(N)=N[C@@]3(c3ccc(F)cc3F)CO2)on1		male 129/SVE mouse, CSF	subcutaneous, 50 mg/kg, 5 h		CSF concentration	99 nM
COc1cccc(OC)c1-c1cc(C(=O)NC2(C(=O)O)C3CC4CC(C3)CC2C4)nn1-c1ccc(C(=O)N(C)CCCN(C)CCCN(C)C(=O)CN2CCN(CC(=O)[O-])CCN(CC(=O)[O-])CCN(CC(=O)[O-])CC2)cc1C(C)C.[177Lu+3] (stereo not shown)		mouse, HT-29 xenograft	4 h post injection, biodistribution	reference: tumour over bone uptake	tumour-to-bone ratio	11.5
Cc1cc(NC2CCN(C(=O)OC3CCN(C(=O)/C=C/CN(C)C)C3)CC2)n2ncc(C(C)C)c2n1 (stereo not shown)	Phase I dose escalation CTCAE v4.0, measured: Hyponatremia	patients with advanced solid tumours	dose not given, TIW dosing any grade		patients with adverse event	18%
CCOc1c([C@H](C)n2nc(C)c3c(N)ncnc32)cc(Cl)c(F)c1[C@@H]1CNC(=O)C1	measured: QTcF > 500 ms	previously treated B-cell malignancy	oral, dose not given, all doses, overall population		share of ECG observations	0%
CCN1CCN(Cc2ccc(NC(=O)c3ccc(C)c(NC(=O)c4cncc(-c5cccs5)c4)c3)cc2C(F)(F)F)CC1		C57BL/6 mice, epithelial lining fluid	intraperitoneal, 10 mg/kg		apparent clearance	37.1 mL/min/kg
Cc1ccc(S(=O)(=O)n2cc3c4c2C(=O)C(NCc2ccc(Cl)cc2)=CC4=NCC3)cc1		Sprague-Dawley rat, plasma	intravenous, 5 mg/kg, two-compartment model		central compartment volume	0.003 L/kg and 0.002 L/kg
O=c1[nH]c(=O)n([C@H]2C[C@H](O)[C@@H](CO)O2)cc1CCCC[18F]		male CD-1 nu/nu mice, RG2 tumour, heart	intravenous, dose not given, 2 h		biodistribution	0.24 ± 0.07 %ID/g
C[C@@H](Nc1cc(F)cc(F)c1)c1cc(C(=O)N(C)C)cc2c(=O)cc(N3CCOCC3)oc12	measured: Diarrhea	advanced solid tumour patients	oral, dose not given, dose expansion		patients discontinuing for AE	0%
O=C(OC(C(F)(F)F)C(F)(F)F)N1CCN(Cc2cccc(Oc3ccccc3)c2)CC1	PET blocking study	rhesus monkey, brain CB	0.1 mg/kg, compound pretreatment, added: [18F]T-401 tracer		k2	0.943 min⁻¹
O=C(O)CCC(=O)O.[2H]C([2H])([2H])Oc1cc(C)c2[nH]ccc2c1CN1CC[C@@H](C2CC2)C[C@H]1c1ccc(C(=O)O)cc1	multiple ascending dose	healthy Chinese subjects	50 mg twice daily		subjects with hyponatraemia	0%
CC1(C)C(/C=C/C=C/C=C/C=C2\N(CCCCS(=O)(=O)O)c3ccc4ccccc4c3C2(C)C)=[N+](CCCCS(=O)(=O)[O-])c2ccc3ccccc3c21		toluene	20 °C		Stokes shift	29 nm
CCN1/C(=C/C(C)=O)Sc2ccc(F)cc21		cynomolgus monkey	oral, 100 mg/kg, 24 h post-dose	reference: pre-dose	PR interval change	97.8 ± 5.4%
CC(C)C[C@H](NC(=O)[C@@H](Cc1c[nH]c2ccccc12)NC(=O)[C@H](Cc1ccc(O)cc1)NC(=O)[C@H](CO)NC(=O)[C@H](Cc1c[nH]c2ccccc12)NC(=O)[C@H](Cc1c[nH]cn1)NC(=O)[C@@H]1CCC(=O)N1)C(=O)N[C@@H](CCCNC(=N)N)C(=O)N1CCC[C@H]1C(=O)NCC(N)=O		Chinese CPP children, overall	intramuscular, 22.5 mg, 12 months, day 1, month 6		patients, drug-related skin TEAEs	1.5%
O=C(O)CCCCCCCCC(=O)O		human, plasma	control		Cmin	15.3 ± 0.9 nM
CNCCOC12CC3(C)CC(C)(CC(Cn4ncc(-c5ccc(N6CCc7cccc(C(=O)Nc8nc9ccccc9s8)c7C6)nc5C(=O)O)c4C)(C3)C1)C2		beagle dog, male, anaesthetised	intravenous bolus, 0.03 mg/kg, 60 min	reference: baseline	QRS duration change	-2 ms
Oc1nc2nonc2cc1Nc1c(F)c(F)c(F)c(F)c1F		obese C57BL/6J mice, Western diet 19 weeks	oral gavage, 130 mg/kg/day, end of treatment		muscle weight	no effect

Repeated from above:
SMILES	assay	system	setting	how to read	measurement	value
COC(=O)N[C@@H](C)CNc1nccc(-c2cn(C(C)C)nc2-c2cc(Cl)cc(NS(C)(=O)=O)c2F)n1		human, plasma	oral, 50 mg, single dose, geometric mean, added: diltiazem	reference: compound alone	Cmax increase	~45% and 44.7%
Cc1ccc([C@@H]2O[C@H](CO)[C@@H](O)[C@H](O)[C@H]2O)cc1Cc1ccc(-c2ccc(F)cc2)s1		Japanese type 2 diabetes patients	200 mg, day 2, 24 h urine collection	reference: baseline	urinary magnesium excretion change	-10.7 mg
CC(C(=O)NCC(=O)NCC(CNC(=O)CNC(=O)C(C)N1CCN(CC(=O)[O-])CCN(CC(=O)[O-])CCN(CC(=O)[O-])CC1)(CNC(=O)CNC(=O)C(C)N1CCN(CC(=O)[O-])CCN(CC(=O)[O-])CCN(CC(=O)[O-])CC1)CNC(=O)CNC(=O)C(C)N1CCN(CC(=O)[O-])CCN(CC(=O)[O-])CCN(CC(=O)[O-])CC1)N1CCN(CC(=O)[O-])CCN(CC(=O)[O-])CCN(CC(=O)[O-])CC1.[Gd+3].[Gd+3].[Gd+3].[Gd+3] (stereo not shown)	ICP-MS	cynomolgus monkey, feces	1 days post-injection	reference: dose	cumulative fecal excretion	0.04%
O=c1[nH]c(=O)n([C@H]2C[C@H](O)[C@@H](CO)O2)cc1CCCCC[18F]		male CD-1 nu/nu mice, RG2 tumour, brain	intravenous, dose not given, 2 h		biodistribution	0.04 ± 0.01 %ID/g
Cc1cc(C)c(CNC(=O)c2cc(Cl)c3c(c2C)O[C@@](C)([C@H]2CC[C@H](N(C)C)CC2)O3)c(=O)[nH]1		human relapsed/refractory NHL	oral, 200 mg once daily, onset after cycle 1 day 1		confusional state grade ≥3	4.2%
C=CC(=O)N1CCC[C@@H](n2c(=O)n(-c3ccc(Oc4ccccc4)cc3)c3c(N)nccc32)C1		human	oral, 60 mg	reference: fed over fasted	Cmax fed/fasted ratio	1.17
COc1ccc2[nH]c([S+]([O-])Cc3ncc(C)c(OC)c3C)nc2c1 (stereo not shown)	static equilibrium cell	water	25 °C, 20 bar pressure		water solubility lower bound	6.97e-06 mole fraction
CNC(=O)c1ccc(-c2cnc3ncc(Cc4ccc5ncccc5c4)n3n2)cc1F	measured: Nausea	hepatocellular carcinoma patients	oral, 600 mg twice daily, expansion cohort, grade 3-4		patients with adverse event	9%
